Results gathered from unrelated publications.
Protocols differ between the studies behind these lines. ± marks the error that the study gave. ≈ marks a conversion by molar mass, not a printed value.
Hypoxanthine-guanine phosphoribosyltransferase: Hypoxanthine-guanine phosphoribosyltransferase (Homo sapiens, UniProt P00492)
Chain of UniProt P00492 (whole entry, looked up): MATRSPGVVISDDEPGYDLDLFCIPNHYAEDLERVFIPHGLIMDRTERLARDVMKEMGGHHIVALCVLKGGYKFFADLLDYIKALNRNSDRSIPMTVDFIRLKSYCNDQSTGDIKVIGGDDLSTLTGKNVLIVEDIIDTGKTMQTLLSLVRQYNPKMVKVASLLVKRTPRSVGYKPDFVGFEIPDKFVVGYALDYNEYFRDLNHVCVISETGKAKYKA
Vitamin D3 receptor: Vitamin D3 receptor (Rattus norvegicus, UniProt P13053)
Chain of UniProt P13053 (whole entry, looked up): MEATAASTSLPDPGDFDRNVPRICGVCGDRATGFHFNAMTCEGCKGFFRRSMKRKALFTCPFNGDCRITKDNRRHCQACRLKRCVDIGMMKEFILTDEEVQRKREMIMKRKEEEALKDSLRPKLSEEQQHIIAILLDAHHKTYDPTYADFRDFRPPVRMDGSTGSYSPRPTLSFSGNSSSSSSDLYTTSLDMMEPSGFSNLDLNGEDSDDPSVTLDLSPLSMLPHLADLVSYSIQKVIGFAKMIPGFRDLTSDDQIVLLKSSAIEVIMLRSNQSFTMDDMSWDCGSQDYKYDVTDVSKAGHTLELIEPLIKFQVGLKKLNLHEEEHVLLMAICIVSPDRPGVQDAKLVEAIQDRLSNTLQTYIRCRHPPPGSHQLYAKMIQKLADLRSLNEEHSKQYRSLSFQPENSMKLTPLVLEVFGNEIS
AGTR2: Type-2 angiotensin II receptor (AGTR2, Homo sapiens, UniProt P50052)
Chain of UniProt P50052 (whole entry, unmodified, looked up): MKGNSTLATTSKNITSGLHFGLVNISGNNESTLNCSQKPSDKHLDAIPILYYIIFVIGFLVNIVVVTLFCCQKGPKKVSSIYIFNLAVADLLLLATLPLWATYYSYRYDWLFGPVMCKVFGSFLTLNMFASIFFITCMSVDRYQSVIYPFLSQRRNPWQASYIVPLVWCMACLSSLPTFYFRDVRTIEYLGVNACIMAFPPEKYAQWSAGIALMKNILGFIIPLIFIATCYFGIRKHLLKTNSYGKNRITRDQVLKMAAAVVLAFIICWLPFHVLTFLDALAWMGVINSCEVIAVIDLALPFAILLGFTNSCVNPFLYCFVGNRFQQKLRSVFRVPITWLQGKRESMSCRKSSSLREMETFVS
MAPK1: Mitogen-activated protein kinase 1 (MAPK1, Homo sapiens, UniProt P28482)
Chain of UniProt P28482 (whole entry, looked up): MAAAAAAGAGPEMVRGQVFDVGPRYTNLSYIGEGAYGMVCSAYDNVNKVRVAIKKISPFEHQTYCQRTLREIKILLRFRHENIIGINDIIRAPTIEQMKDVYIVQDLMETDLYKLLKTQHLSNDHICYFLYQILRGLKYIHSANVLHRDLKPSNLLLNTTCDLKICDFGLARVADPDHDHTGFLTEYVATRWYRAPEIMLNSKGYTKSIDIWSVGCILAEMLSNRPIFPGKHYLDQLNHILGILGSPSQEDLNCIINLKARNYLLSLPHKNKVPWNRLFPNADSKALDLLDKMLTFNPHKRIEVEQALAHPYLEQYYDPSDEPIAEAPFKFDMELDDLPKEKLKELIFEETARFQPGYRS
CREBBP KIX domain: CREB-binding protein, KIX domain (CREBBP, Homo sapiens, UniProt Q92793)
Chain of UniProt Q92793 (whole entry, looked up): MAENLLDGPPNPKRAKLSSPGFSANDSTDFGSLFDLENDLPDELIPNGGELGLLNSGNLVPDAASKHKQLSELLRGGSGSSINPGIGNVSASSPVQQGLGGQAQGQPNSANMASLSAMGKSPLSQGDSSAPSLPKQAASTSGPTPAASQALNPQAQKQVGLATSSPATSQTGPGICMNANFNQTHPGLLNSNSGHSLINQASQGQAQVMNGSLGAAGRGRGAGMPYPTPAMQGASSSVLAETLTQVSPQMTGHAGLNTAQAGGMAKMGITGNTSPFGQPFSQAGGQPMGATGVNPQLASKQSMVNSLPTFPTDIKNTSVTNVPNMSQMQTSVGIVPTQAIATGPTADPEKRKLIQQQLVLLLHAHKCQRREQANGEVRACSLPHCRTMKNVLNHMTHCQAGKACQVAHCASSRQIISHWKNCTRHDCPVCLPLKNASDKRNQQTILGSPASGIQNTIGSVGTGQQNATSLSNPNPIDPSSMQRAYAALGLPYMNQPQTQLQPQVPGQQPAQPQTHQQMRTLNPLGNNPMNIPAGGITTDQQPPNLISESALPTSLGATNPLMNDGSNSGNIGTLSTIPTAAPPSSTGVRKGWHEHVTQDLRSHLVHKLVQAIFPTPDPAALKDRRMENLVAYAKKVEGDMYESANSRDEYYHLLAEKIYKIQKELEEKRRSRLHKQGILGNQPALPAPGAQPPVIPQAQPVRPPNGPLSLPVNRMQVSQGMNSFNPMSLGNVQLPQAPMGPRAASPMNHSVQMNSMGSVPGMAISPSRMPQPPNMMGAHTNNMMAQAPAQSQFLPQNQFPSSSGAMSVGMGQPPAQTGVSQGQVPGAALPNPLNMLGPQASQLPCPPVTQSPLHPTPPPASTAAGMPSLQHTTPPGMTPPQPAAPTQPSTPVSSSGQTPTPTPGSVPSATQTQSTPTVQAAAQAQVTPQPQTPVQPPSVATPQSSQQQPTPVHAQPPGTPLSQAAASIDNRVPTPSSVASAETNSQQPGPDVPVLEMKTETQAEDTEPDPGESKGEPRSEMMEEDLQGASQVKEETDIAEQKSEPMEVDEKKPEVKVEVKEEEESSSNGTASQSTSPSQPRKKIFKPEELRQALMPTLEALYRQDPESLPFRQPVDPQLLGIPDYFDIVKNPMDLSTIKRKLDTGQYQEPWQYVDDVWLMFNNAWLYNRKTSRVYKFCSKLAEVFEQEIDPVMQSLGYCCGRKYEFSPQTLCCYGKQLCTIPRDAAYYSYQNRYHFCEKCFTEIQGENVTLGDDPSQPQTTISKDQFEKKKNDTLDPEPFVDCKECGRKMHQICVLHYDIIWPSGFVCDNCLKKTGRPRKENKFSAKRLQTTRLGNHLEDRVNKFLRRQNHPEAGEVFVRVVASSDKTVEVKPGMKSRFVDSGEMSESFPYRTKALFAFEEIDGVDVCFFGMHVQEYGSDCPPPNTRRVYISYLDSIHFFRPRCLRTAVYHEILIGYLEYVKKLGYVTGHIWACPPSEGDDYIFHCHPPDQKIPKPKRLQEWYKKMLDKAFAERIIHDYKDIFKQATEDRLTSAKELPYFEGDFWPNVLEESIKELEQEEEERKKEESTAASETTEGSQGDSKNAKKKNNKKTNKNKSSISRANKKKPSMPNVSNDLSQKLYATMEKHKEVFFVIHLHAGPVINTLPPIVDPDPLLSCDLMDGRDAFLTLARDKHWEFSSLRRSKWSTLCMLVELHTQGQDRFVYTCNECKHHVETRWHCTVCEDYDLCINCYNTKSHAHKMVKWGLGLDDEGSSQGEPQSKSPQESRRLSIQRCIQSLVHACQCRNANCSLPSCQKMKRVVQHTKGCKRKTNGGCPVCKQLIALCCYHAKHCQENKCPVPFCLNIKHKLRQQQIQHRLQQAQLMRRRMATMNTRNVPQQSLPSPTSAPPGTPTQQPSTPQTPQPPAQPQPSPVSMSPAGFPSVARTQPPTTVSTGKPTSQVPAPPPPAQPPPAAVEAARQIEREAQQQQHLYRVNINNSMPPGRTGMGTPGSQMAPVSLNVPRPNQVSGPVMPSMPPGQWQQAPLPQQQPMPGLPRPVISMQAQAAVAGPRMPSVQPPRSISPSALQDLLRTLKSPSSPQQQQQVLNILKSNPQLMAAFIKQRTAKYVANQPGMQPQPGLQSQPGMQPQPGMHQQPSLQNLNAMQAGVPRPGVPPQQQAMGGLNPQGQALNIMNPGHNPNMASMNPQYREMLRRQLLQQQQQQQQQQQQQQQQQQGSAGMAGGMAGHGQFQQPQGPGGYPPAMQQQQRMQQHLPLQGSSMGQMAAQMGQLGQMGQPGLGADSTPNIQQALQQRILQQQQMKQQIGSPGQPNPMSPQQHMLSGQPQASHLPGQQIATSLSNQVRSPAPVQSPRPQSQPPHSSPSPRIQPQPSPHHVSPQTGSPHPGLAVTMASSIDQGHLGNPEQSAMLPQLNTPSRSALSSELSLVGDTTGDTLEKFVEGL
cathepsin B: cathepsin B (Capra hircus, UniProt A0A452G2V1)
DRD4: D(4) dopamine receptor (DRD4, Homo sapiens, UniProt P21917)
Chain of UniProt P21917 (whole entry, looked up): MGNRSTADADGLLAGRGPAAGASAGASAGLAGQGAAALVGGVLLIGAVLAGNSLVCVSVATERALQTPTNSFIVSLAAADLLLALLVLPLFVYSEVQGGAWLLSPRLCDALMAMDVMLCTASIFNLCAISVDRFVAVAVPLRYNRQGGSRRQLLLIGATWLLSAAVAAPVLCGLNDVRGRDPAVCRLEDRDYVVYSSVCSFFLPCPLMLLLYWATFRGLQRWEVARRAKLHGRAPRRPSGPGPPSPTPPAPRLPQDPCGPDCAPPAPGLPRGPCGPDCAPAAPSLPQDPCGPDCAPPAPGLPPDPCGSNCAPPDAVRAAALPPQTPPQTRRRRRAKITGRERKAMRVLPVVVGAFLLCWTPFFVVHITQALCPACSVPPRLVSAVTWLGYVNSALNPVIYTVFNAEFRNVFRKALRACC
Chain of UniProt Q6GI75 (whole entry, looked up): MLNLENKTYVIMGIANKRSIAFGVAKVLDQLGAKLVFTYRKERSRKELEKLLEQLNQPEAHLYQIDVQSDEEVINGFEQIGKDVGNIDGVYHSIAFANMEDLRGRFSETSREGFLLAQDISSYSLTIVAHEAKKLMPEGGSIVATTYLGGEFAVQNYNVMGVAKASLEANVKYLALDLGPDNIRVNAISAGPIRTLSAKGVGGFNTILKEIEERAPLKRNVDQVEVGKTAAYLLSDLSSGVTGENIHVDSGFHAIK
Chain of UniProt Q9VKN7 (whole entry, looked up): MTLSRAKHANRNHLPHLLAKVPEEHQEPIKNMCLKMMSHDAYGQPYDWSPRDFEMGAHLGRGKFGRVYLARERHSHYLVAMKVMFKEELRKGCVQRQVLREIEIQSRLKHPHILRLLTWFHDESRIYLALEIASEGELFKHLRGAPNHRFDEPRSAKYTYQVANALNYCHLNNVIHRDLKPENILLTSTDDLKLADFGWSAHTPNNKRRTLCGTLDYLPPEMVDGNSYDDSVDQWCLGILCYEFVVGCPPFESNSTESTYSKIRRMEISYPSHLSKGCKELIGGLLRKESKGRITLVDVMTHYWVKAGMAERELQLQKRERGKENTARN

SMILES | target or system | assay | test system | conditions | how to read | endpoint | result
O=P(O)(O)CC[C@@H](CO)NCc1c[nH]c2c(O)nc(O)nc12 | Hypoxanthine-guanine phosphoribosyltransferase | enzyme activity, inhibitor |  | pH 7.4 |  | Ki | > 100000 nM
CCCC[C@@H](C)[C@H]1CC[C@H]2/C(=C/C=C3C[C@@H](O)C(C)[C@H](O)C3)CCC[C@]12C (stereo partly drawn) | Vitamin D3 receptor | binding, radioligand competition |  | together with: radiolabelled 1α,25-dihydroxyvitamin D3 1 nM |  | Ki | 2 nM
CCOC(=O)NS(=O)(=O)c1sc(CC(C)C)cc1-c1ccc2c(c1)CCN(C(=O)OC)C2 | AGTR2 | ligand displacement, radioligand |  | cell membranes |  | Ki | 290 nM
CN(C)c1ccc(-n2cc(COC(=O)[C@]3(C)C=C(C(=O)OC(C)(C)C)C(=O)CC3)nn2)cc1 | MAPK1 | ligand displacement, FP |  |  |  | Ki | 2300 nM
CC[C@H](C)[C@H](NC(=O)[C@H](CC(=O)O)NC(=O)[C@H](CO)NC(C)=O)C(=O)N[C@@H](CSCc1ccccc1)C(=O)N[C@@H](CC(=O)O)C(=O)N[C@@H](Cc1ccccc1)C(=O)N[C@H](C(=O)N[C@@H](CC(C)C)C(=O)N[C@@H](CCCCN)C(=O)N[C@@H](CC(N)=O)C(=O)N[C@@H](Cc1ccc(O)cc1)C(=O)N1CCC[C@H]1C(=O)O)[C@@H](C)CC | CREBBP KIX domain | binding, competitive inhibitor, fluorescence polarisation |  | together with: fluorescent MLL peptide |  | Ki | 24000 ± 15000 nM
N#Cc1cccc(-c2ccc(=O)n(Cc3cccc(-c4ncc(OCC5CCN(CC(=O)N6CCN(CCNc7ccc8c(c7)C(=O)N(C7CCC(=O)NC7=O)C8=O)CC6)CC5)cn4)c3)n2)c1 (stereo not drawn) | MET (Homo sapiens, UniProt P08581) | degrader |  |  |  | DC50 | 0.83 ± 0.16 nM
CC(C)CN(NC(=O)[C@H](CCCNC(=N)N)NC(=O)[C@H](Cc1ccc(O)cc1)NC(=O)CCCCCCC(=O)N[C@@H](Cc1ccc(O)cc1)C(=O)N[C@@H](CCCNC(=N)N)C(=O)NN(CC(C)C)C(=O)N[C@@H](CCCNC(=N)N)C(=O)N[C@@H](Cc1ccc(O)cc1)C(N)=O)C(=O)N[C@@H](CCCNC(=N)N)C(=O)N[C@@H](Cc1ccc(O)cc1)C(N)=O | NPY2R (Homo sapiens, UniProt P49146) | ligand displacement, radioligand |  |  |  | Ki | > 5000 nM
CC(C)C[C@@H]1NC(=O)[C@H](Cc2ccccc2)NC(=O)[C@H](Cc2ccc(O)cc2)NC(=O)CCSSC[C@@H](C(=O)N2CCC[C@H]2C(=O)N[C@@H](CCCCNC(=O)CCCCCCCCCCN)C(=O)NCC(N)=O)NC(=O)[C@H](CC(N)=O)NC1=O | AVPR1B (Homo sapiens, UniProt P47901) | ligand displacement, radioligand |  | cell membranes |  | Ki | 3.7 nM
[64Cu+2].c1cnc(CNCc2ccc(CN3CCCN4CCNCCCN(CC4)CC3)cc2)nc1 | CXCR4 |  | NOD/SCID mouse, U87 and U87-stb-CXCR4 xenografts | iv, 90 min, no blocking dose | baseline: U87 tumour over muscle | tumour-to-tissue ratio | 15.8 ± 7.01
CN(C)c1ccc(-c2ccc3cc(OCC(O)CF)ccc3n2)cc1 (stereo not drawn) | MAPT (Homo sapiens, UniProt P10636) | ligand displacement, radioligand |  |  |  | Ki | 34 nM
COC(=O)C1(C)C=C(C(=O)OCc2ccccc2)C(=O)CC1 (stereo not drawn) | MAPK1 | ligand displacement, FP |  |  |  | Ki | 16200 nM
NC(=O)N/N=C(/C=C/c1ccccc1)c1ccccc1 | cathepsin B | enzyme activity, competitive inhibitor |  | pH 6.0, purified goat liver enzyme, together with: BANA substrate |  | Ki | 42500 ± 200 nM
CCCc1nc2ccc(N(C)C(=O)c3cccs3)cc2c(=O)n1Cc1ccc(-c2ccccc2-c2nnn[nH]2)cc1 | AGTR2 | ligand displacement, radioligand |  |  |  | Ki | 18.8 nM
CCCCOC(=O)NS(=O)(=O)c1sc(CC(C)C)cc1-c1cccc(CN(Cc2cccnc2)C(C)=O)c1 | AGTR2 | ligand displacement, radioligand |  | cell membranes |  | Ki | 110 nM
COC(=O)[C@@]1(C)C=C(C(=O)OC(C)(C)C)C(=O)CC1 | MAPK1 | ligand displacement, FP |  |  |  | Ki | 12300 nM
NC(=O)N/N=C(\C=C\c1cccc([N+](=O)[O-])c1)c1ccccc1 | cathepsin B | enzyme activity, competitive inhibitor |  | pH 6.0, purified goat liver enzyme, together with: BANA substrate |  | Ki | 34900 ± 200 nM
CCCCCCCCCCCC(=O)NCCC(=O)N[C@@H](CCCNC(=N)N)C(=O)N[C@@H](CCCNC(=N)N)C(=O)N[C@@H](CCCNC(=N)N)C(=O)N[C@@H](CCCNC(=N)N)C(=O)N[C@H](CCCNC(=N)N)C(=O)N[C@H](CCCNC(=N)N)C(=O)N[C@H](CCCNC(=N)N)C(=O)N[C@H](CCCNC(=N)N)C(=O)N[C@H](CCCNC(=N)N)C(=O)N[C@@H](CCCCNC(=S)Nc1ccc2c(c1)C(=O)OC21c2ccc(O)cc2Oc2cc(O)ccc21)C(N)=O | Jurkat | flow cytometry |  | 10 µM, 6 h, loaded 10 min at 37 °C, then washed | baseline: 0 h, higher = more retained | retained fluorescence | ~50%
[64Cu+2].c1ccc(CNCc2ccc(CN3CCCN4CCNCCCN(CC4)CC3)cc2)nc1 | CXCR4 (human) |  | NOD/SCID mice, U87 xenografts, U87 control tumour | 480 min post-injection |  | tissue uptake | 2.92 ± 0.77 %ID/g
CC[C@H](C)[C@H](NC(=O)[C@H](CC(=O)O)NC(=O)[C@H](CO)NC(C)=O)C(=O)N[C@@H](C)C(=O)N[C@@H](CC(=O)O)C(=O)N[C@@H](Cc1ccccc1C)C(=O)N[C@H](C(=O)N[C@@H](CC(C)C)C(=O)N[C@@H](CCCCN)C(=O)N[C@@H](CC(N)=O)C(=O)N[C@@H](Cc1ccc(O)cc1)C(=O)N1CCC[C@H]1C(=O)O)[C@@H](C)CC | CREBBP KIX domain | binding, competitive inhibitor, fluorescence polarisation |  | together with: fluorescent MLL peptide |  | Ki | > 500000 nM
CO[C@@H]1[C@H](O)[C@@H](COP(=O)(O)OP(=O)(O)OP(=O)(O)O)O[C@H]1n1cnc2c(=O)[nH]c(N)nc21 | mRNA-capping enzyme subunit beta (CET1, Saccharomyces cerevisiae, UniProt O13297) |  |  |  |  | Ki | 11000 nM
CCCc1nc2ccc(N(Cc3ccco3)C(=O)c3ccccc3)cc2c(=O)n1Cc1ccc(-c2ccccc2-c2nnn[nH]2)cc1 | AGTR2 (Homo sapiens, UniProt P50052, F129A) | ligand displacement, radioligand |  | cell membranes |  | Ki | 10.2 nM
CCCCC/C=C/C(=O)CCc1ccc(O)c(OC)c1 | mouse mAb 1-D6 | antibody binding, indirect competitive ELISA |  | together with: coating antigen 6-OVA |  | IC50 | 0.0503 µg/mL (≈ 0.182 µM)
NC(=O)N/N=C(\C=C\c1cccc(Cl)c1)c1ccccc1 | cathepsin B | enzyme activity, competitive inhibitor |  | pH 6.0, purified goat liver enzyme, together with: BANA substrate |  | Ki | 39000 ± 500 nM

SMILES | target or system | assay | test system | conditions | how to read | endpoint | result
C=C1[C@H](O)CC(=C/C=C2\CCC[C@]3(C)[C@@H]([C@@H](C)CCCCO)CC[C@@H]23)C[C@H]1O | Vitamin D3 receptor | binding, radioligand competition |  | together with: radiolabelled 1α,25-dihydroxyvitamin D3 1 nM |  | Ki | 0.3 nM
O[C@@H]1[C@H](O)[C@@H](CNC(=S)Nc2ccccc2)N2CCC[C@@H](O)[C@H]12 | Lysosomal alpha-mannosidase (Homo sapiens, UniProt O00754) | enzyme activity, inhibitor |  | together with: Man-α-4MU substrate |  | Ki | 610 nM
COc1ccc(-c2cc(C(F)(F)F)nc(NCc3ccccc3)n2)cc1OC | Secretin receptor (SCTR, Homo sapiens, UniProt P47872) | increase of tracer binding, TR-FRET | HEK293 membranes | together with: Fluo-Sec 6 nM |  | EC50 | 4400 ± 1800 nM
O[C@@H]1Cc2ccccc2[C@H]1NCc1cn2ccc(Br)cc2n1 | DRD4 | ligand displacement, radioligand |  |  |  | Ki | 120 nM
COc1cc(CCC(C)=O)ccc1O | mouse mAb 1-D6 | antibody binding, indirect competitive ELISA |  | together with: coating antigen 5-OVA |  | IC50 | 0.122 µg/mL (≈ 0.626 µM)
Cc1ccc(/C=C/C(=N\NC(N)=O)c2ccccc2)cc1 | cathepsin B | enzyme activity, competitive inhibitor |  | pH 6.0, purified goat liver enzyme, together with: BANA substrate |  | Ki | 104000 ± 1000 nM
Cc1ccc(C(=O)Nc2ccc(CP(=O)(O)O)cc2CP(=O)(O)O)cc1NC(=O)c1cccc(NC(=O)Nc2cccc(C(=O)Nc3cc(C(=O)Nc4ccc(CP(=O)(O)O)cc4CP(=O)(O)O)ccc3C)c2)c1 | F11 (Homo sapiens, UniProt P03951) | enzyme activity, inhibitor, absorbance |  |  |  | Ki | ~7400 nM
Nc1nc(O)c2[nH]cc(CN[C@H](CO)CCP(=O)(O)O)c2n1 | Hypoxanthine-guanine phosphoribosyltransferase | enzyme activity, inhibitor |  | pH 7.4 |  | Ki | 20 nM
CCc1nc2ccc(N(Cc3ccccc3)C(=O)c3cccs3)cc2c(=O)n1Cc1ccc(-c2ccccc2-c2nn[nH]n2)cc1 | AGTR2 (Homo sapiens, UniProt P50052, F308A) | ligand displacement, radioligand |  | cell membranes |  | Ki | 12 nM
COc1ccc(/C=C/C(=N/NC(N)=O)c2ccccc2)cc1 | cathepsin B | enzyme activity, competitive inhibitor |  | pH 6.0, purified goat liver enzyme, together with: BANA substrate |  | Ki | 52400 ± 800 nM
CCCc1nc2ccc(NC(=O)c3ccccc3)cc2c(=O)n1Cc1ccc(-c2ccccc2-c2nnn[nH]2)cc1 | AGTR2 | ligand displacement, radioligand |  |  |  | Ki | 1790 nM
CCC1(CC)C(=O)N(c2cccc(CN3CCN(C)CC3)c2)C1=O | Dipeptidyl peptidase 8 (Homo sapiens, UniProt Q6V1X1) | enzyme activity, inhibitor, fluorescence |  |  |  | Ki | 528 nM
NS(=O)(=O)Nc1ncnc(OCCOc2ncc(Br)cn2)c1-c1ccc(Br)cc1 |  | Michaelis-Menten plot, measured: compound formation | male Sprague-Dawley rat, liver microsomes | 1500 mg/kg daily, 4 weeks |  | Vmax | 522 ± 29 pmol/min/mg
CN(C)C=Nc1c(C#N)cnn1-c1ccc(F)c(Cl)c1 | Aurora kinase B (aurB, Drosophila melanogaster, UniProt Q9VKN7) | kinase activity, ATP-competitive inhibitor |  |  |  | Ki | 360 ± 100 nM
COc1ccc(-c2cc(C(F)(F)F)nc(S(=O)(=O)NCC(=O)Nc3ccc(C)cc3)n2)cc1 | WRN (Homo sapiens, UniProt Q14191) | DNA unwinding, covalent inhibitor, real-time unwinding |  | 0.5 nM enzyme, together with: 120 µM ATP |  | Ki | 630 nM
CCOC(=O)NS(=O)(=O)c1sc(CC(C)C)cc1-c1ccc2c(c1)CCN(C(C)=O)C2 | AGTR2 | ligand displacement, radioligand |  | cell membranes |  | Ki | 120 nM
CNCCNC(=O)CN1C(=O)Cc2c([nH]c3ccc(Br)cc23)-c2ccc(Cl)cc21 | Trypanothione synthetase (Leishmania infantum, UniProt A4I2Z3) | enzyme activity, competitive inhibitor |  | apparent, together with: spermidine variable |  | Ki | 33 nM
N#Cc1ccccc1Oc1ccc(Cl)cc1O | Enoyl-[acyl-carrier-protein] reductase [NADPH] FabI (Staphylococcus aureus, UniProt Q6GI75) | enzyme activity, inhibitor |  |  |  | Ki | 114 nM
O=Cc1c(O)ccc2ccccc12 | HUVEC | RNA sequencing, measured: E2F2 |  | 75 µM, 24 h | baseline: DMSO | log2 fold change | -2.92
c1ccc(OC[C@H]2CN(CCN3CCc4ccccc43)CCO2)nc1 | DRD4 | ligand displacement, radioligand |  |  |  | Ki | < 1000 nM
CN(CCNc1ncc(C#N)cc1Cl)Cc1ccc(F)cc1 | DRD4 | ligand displacement, radioligand |  |  |  | Ki | 160 nM
COc1ccc(-c2nc(CSc3nc(N)c(C#N)c(-c4ccccc4)c3C#N)cs2)cc1 | ADORA2B (Homo sapiens, UniProt P29275) | binding |  |  |  | Ki | 272 ± 99 nM

A few entries again:
SMILES | target or system | assay | test system | conditions | how to read | endpoint | result
CC(C)C[C@@H]1NC(=O)[C@H](Cc2ccccc2)NC(=O)[C@H](Cc2ccc(O)cc2)NC(=O)CCSSC[C@@H](C(=O)N2CCC[C@H]2C(=O)N[C@@H](CCCCNC(=O)CCCCCCCCCCN)C(=O)NCC(N)=O)NC(=O)[C@H](CC(N)=O)NC1=O | AVPR1B (Homo sapiens, UniProt P47901) | ligand displacement, radioligand |  | cell membranes |  | Ki | 3.7 nM
CNCCNC(=O)CN1C(=O)Cc2c([nH]c3ccc(Br)cc23)-c2ccc(Cl)cc21 | Trypanothione synthetase (Leishmania infantum, UniProt A4I2Z3) | enzyme activity, competitive inhibitor |  | apparent, together with: spermidine variable |  | Ki | 33 nM
CCOC(=O)NS(=O)(=O)c1sc(CC(C)C)cc1-c1ccc2c(c1)CCN(C(C)=O)C2 | AGTR2 | ligand displacement, radioligand |  | cell membranes |  | Ki | 120 nM
